Experimental data gathered from unrelated publications.
A part holds a random share of what one study measured.

Series 1
Target: Sox, HMG box (Pigoraptor chileana)
Method: Spec-seq
Form: double-stranded DNA, one strand shown
Medium: in vitro
Concentration: not given
Notes: whole probe, mean of replicates
Baseline: not given
Direction: lower = stronger binding
Shared flanks, not repeated: GAGTCGTCTCGTCAGCAC … CCGTAGAGCACTCAGGTC
Residues (chain): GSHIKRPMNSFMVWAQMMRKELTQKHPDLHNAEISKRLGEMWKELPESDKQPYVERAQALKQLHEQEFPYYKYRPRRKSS
| Strand | relative binding energy |
| --- | --- |
| CATGAAT | 0.347 ln ratio |
| CATCAGG | 0.215 ln ratio |
| TGATGTT | -0.0968 ln ratio |
| CAAAGTT | 0.47 ln ratio |
| CATGACC | 0.613 ln ratio |
| CATATTG | 0.191 ln ratio |
| AGCGGTT | 0.125 ln ratio |
| CGTCGTT | 1.21 ln ratio |
| CGAGGTT | 1.29 ln ratio |
| CATGTAC | 0.461 ln ratio |

Series 2
Target: Interferon regulatory factor 7, full length, phosphomimetic (IRF7, Homo sapiens, UniProt Q92985, residues 1-503, S101K/S471D/S472D/S475D/S476D/S477D/S483D/S484D/S487D)
Chain of UniProt Q92985 (whole entry, unmodified, looked up): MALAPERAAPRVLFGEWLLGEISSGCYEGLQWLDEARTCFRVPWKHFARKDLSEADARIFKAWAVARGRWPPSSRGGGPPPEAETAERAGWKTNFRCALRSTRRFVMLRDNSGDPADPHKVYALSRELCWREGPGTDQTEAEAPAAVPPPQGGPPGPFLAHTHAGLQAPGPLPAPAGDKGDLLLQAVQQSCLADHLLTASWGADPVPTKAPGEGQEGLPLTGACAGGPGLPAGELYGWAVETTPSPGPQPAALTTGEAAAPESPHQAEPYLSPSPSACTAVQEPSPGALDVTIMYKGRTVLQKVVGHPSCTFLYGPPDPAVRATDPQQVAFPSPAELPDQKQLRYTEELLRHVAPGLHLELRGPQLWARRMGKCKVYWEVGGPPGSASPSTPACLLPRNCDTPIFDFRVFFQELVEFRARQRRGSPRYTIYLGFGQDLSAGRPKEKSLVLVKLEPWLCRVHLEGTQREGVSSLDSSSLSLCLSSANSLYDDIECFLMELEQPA
Method: protein-binding microarray
Form: double-stranded DNA, one strand shown
Medium: in vitro
Concentration: 250 nM
Notes: 60-bp whole probe
Added: salmon DNA 0.4 mg/ml
Baseline: random background probes
Direction: higher = stronger binding
Shared flanks, not repeated: GCCTAGCAC … GTCTTGATTCGCTTGACGCTGCTG
| Strand | log fluorescence [z-score] |
| --- | --- |
| GACGAACTGAGTCTCGAGACGTGCTAG | 0.136 |
| TTAGGTATCCTTTTTCTTTAGTGCTAG | 1.3 |
| CTAGGTATCGACTTTCGGTTAGTGCTA | 3.59 |
| GACGATTTCGGGTTTAGAGACGTGCTA | 1.25 |
| AGAGCTGTCCTTTGCAACAGGTGCTAG | -0.902 |
| GACGAACTGGGGCCTGGAGACGTGCTA | -0.165 |
| TTAGGCATCGGTTTCGGTTAGTGCTAG | 8.94 |

Series 3
Target: Sal-like protein 4, full length isoform A (SALL4, Homo sapiens, UniProt Q9UJQ4, residues 1-1053)
Chain of UniProt Q9UJQ4 (whole entry, looked up): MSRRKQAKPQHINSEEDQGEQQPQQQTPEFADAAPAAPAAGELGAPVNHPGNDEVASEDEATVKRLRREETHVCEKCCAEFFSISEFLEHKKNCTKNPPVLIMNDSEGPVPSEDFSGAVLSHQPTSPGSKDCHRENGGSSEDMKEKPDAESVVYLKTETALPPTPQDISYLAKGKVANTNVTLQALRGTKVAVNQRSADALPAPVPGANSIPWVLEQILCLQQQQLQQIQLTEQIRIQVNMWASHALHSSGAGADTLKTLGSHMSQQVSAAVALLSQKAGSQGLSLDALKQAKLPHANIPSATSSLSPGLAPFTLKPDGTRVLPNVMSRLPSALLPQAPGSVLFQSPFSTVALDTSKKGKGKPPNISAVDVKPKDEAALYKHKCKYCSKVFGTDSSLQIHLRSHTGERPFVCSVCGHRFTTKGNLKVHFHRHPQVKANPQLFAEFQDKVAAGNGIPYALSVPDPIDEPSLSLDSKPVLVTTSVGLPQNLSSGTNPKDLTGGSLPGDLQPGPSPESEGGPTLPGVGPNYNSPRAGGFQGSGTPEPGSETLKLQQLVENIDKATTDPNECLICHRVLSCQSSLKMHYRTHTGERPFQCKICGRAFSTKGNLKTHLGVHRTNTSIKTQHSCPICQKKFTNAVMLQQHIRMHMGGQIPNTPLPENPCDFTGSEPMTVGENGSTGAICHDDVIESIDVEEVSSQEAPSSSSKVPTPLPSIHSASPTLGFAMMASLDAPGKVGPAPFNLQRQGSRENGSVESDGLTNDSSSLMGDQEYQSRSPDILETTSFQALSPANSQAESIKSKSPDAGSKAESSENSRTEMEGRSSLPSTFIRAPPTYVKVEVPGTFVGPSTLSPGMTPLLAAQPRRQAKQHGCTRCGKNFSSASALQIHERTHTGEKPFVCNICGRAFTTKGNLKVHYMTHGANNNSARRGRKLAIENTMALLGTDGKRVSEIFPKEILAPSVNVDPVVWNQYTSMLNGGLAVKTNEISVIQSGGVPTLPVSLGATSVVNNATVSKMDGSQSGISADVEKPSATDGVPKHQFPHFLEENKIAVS
Method: universal PBM
Form: double-stranded DNA, one strand shown
Medium: in vitro
Concentration: 600 nM
Notes: 8-mer, flanks averaged, mean of replicates
Direction: higher = stronger binding
| Strand | E-score |
| --- | --- |
| CCCGTGCC | -0.373 |
| TAACGCTA | 0.135 |
| CTCTATGC | -0.0444 |
| AACGATCA | 0.0935 |
| CCTTCATC | -0.0805 |
| CATGACGC | -0.0794 |

Single results of other studies
| Substance | target | test | system | conditions | scale | quantity | result |
| --- | --- | --- | --- | --- | --- | --- | --- |
| PhoQ, residues 284 288 289 292 302 303 SNGLAW | PhoP, residues 12 14 15 18 19 AQCLL (Escherichia coli, UniProt P23836) | Sort-seq, item: YFP reporter | E. coli | PhoQ-PhoP variant library, added: 10 µM Mg2+ | baseline: high Mg2+ state, higher = stronger signaling | fold induction | 9.62 |

Repeated from above (series 1):
| Strand | relative binding energy |
| --- | --- |
| CAAAGTT | 0.47 ln ratio |
| CATGACC | 0.613 ln ratio |
| CATATTG | 0.191 ln ratio |
